Measured values collected from several papers.
Protocols differ between the studies behind these lines. “And” joins repeats or separate records; there may be more than shown. Numbers after ± are the reported error.

Structure (SMILES)	test	test system	conditions	scale	endpoint	result
N#Cc1ccc2c(c1)[C@H]1CCCN(C(=O)c3ccc4[nH]cnc4c3)[C@H]1C2		human	160 mg, day 7		minimum ACTH level	2.9 pmol/L
Cn1cc([C@H]2C[C@H]3CSC(N)=N[C@@]3(c3ccc(F)cc3F)CO2)cn1		male 129/SVE mouse, brain	subcutaneous, 50 mg/kg, 18 h		brain concentration	187 nM
C=CC(=O)N1CCC(c2ccc(C(N)=O)c(-c3ccc(Oc4ccccc4)cc3)n2)CC1		relapsed/refractory mantle cell lymphoma patients	oral, 150 mg once daily, part, CTCAE v4.03		serious TEAE rate	0%
CCN1/C(=C/C(C)=O)Sc2ccc(F)cc21		cynomolgus monkey	oral, 100 mg/kg, 4 h post-dose	relative to: pre-dose	PR interval change	103 ± 3.4%
Cc1ccc([C@@H]2O[C@H](CO)[C@@H](O)[C@H](O)[C@H]2O)cc1Cc1ccc(-c2ccc(F)cc2)s1	measured: inorganic phosphorus	Japanese type 2 diabetes patients	100 mg, day 17, 24 h urine collection	relative to: baseline	urinary phosphate excretion change	5.79 mg
CC(=O)NC[C@H]1CN(c2ccc(N3CCOCC3)c(F)c2)C(=O)O1		human whole blood	concentration not given, 48 h, 4 °C		deviation from nominal concentration	0.6%
C[C@@H]1COCCN1c1cc(C2([S@](C)(=N)=O)CC2)nc(-c2cc[nH]c3nccc2-3)n1		Japanese advanced solid tumour patients	oral, 160 mg twice daily, any grade		Pyrexia incidence	16.7%
COc1cc(Nc2ncc3c(n2)-c2ccc(Cl)cc2C(c2c(F)cccc2OC)=NC3)ccc1C(=O)O		cancer patients	oral, dose not given, grade 1 any attribution, added: pembrolizumab		patients with abdominal pain	13%
Cc1cnc(N2CC3(CCOCC3)C2)c(C(=O)Nc2ccc(C(=O)N3CCc4cc(C(=O)Nc5c(C)cccc5F)sc4-c4ccccc43)cc2)c1		human, nasal mucosal lining fluid	inhaled, 5 mg twice daily, 48 h		concentration	13500 ng/mL
C[C@H]1C=C(Cc2ccccc2)C(=O)O1	soil adsorption	tested soils	geometric mean		Freundlich coefficient KF	1.8 mL/g
CCN(Cc1ccc(F)cc1)c1ccc(CO)c(Cl)c1		male F344 rat, serum	oral, 100 mg/kg/day, 2 days		GGT	2.3 U/L
Cc1ccc(CCC(=O)Nc2nnc(S(N)(=O)=O)s2)cc1		BALB/c mice, male, plasma	oral, 20 mg/kg		volume of distribution	31.2 L/kg
CC(C)(C(=O)N1CCOc2c(C#N)cncc2C1)C(F)F		human, both sexes	oral, 10 mg single dose		subjects with dizziness TEAE	0%
Cc1nc2cccc(OCC(C)(C)C(=O)NC(C)C)c2c(N)c1C(=O)O		male Swiss albino CD-1 mouse, bone marrow	oral, 1000 mg/kg, 36 h		micronucleated polychromatic erythrocytes	0.06%
COc1cccc(Cl)c1[C@@H]1C[C@H]1NS(=O)(=O)c1ccsc1C(=O)O	colloidal aggregate formation, dynamic light scattering	50 mM potassium phosphate buffer	200 µM, pH 7.0, 1% DMSO	higher = more aggregation	DLS scattered light intensity	2.5e+07 counts/s
CC(C)C[C@H](NC(=O)[C@@H](Cc1c[nH]c2ccccc12)NC(=O)[C@H](Cc1ccc(O)cc1)NC(=O)[C@H](CO)NC(=O)[C@H](Cc1c[nH]c2ccccc12)NC(=O)[C@H](Cc1c[nH]cn1)NC(=O)[C@@H]1CCC(=O)N1)C(=O)N[C@@H](CCCNC(=N)N)C(=O)N1CCC[C@H]1C(=O)NCC(N)=O		Chinese CPP children, boys	intramuscular, 22.5 mg, 12 months, day 1, month 6		patients, drug-related laboratory TEAEs	25%
O=[N+]([O-])c1cnc2ccc(F)cc2c1O	haemolysis	sheep erythrocytes	1 h, pH 7.5		HC50	> 128 µg/mL
Cc1c(-c2ccc(N3CCc4cccc(C(=O)Nc5nc6ccccc6s5)c4C3)nc2C(=O)O)cnn1CC12CC3(C)CC(C)(C1)CC(OCCNCC[C@H](O)CO)(C3)C2		anesthetized male beagle dogs	intravenous infusion, 0.3 mg/kg/min, 30 min	relative to: vehicle	PR interval change	-1 ms
CCCCC1=NC2(CCCC2)C(=O)N1Cc1ccc(-c2ccccc2S(=O)(=O)Nc2noc(C)c2C)c(COCC)c1		healthy adult volunteers, plasma	oral, 1600 mg, single dose, fasted, crushed tablet		AUC(0-inf)	206000 ng·h/mL
CC[C@H](C)[C@H](NC(=O)[C@H](Cc1ccccc1)NC(=O)[C@H](CCC(=O)O)NC(=O)[C@H](CCCCNC(=O)COCCOCCNC(=O)COCCOCCNC(=O)CC[C@H](NC(=O)CCCCCCCCCCCCCCCCC(=O)O)C(=O)O)NC(=O)[C@H](C)NC(=O)[C@H](C)NC(=O)[C@H](CCC(N)=O)NC(=O)CNC(=O)[C@H](CCC(=O)O)NC(=O)[C@H](CC(C)C)NC(=O)[C@H](Cc1ccc(O)cc1)NC(=O)[C@H](CO)NC(=O)[C@H](CO)NC(=O)[C@@H](NC(=O)[C@H](CC(=O)O)NC(=O)[C@H](CO)NC(=O)[C@@H](NC(=O)[C@H](Cc1ccccc1)NC(=O)[C@@H](NC(=O)CNC(=O)[C@H](CCC(=O)O)NC(=O)C(C)(C)NC(=O)[C@@H](N)Cc1cnc[nH]1)[C@@H](C)O)[C@@H](C)O)C(C)C)C(=O)N[C@@H](C)C(=O)N[C@@H](Cc1c[nH]c2ccccc12)C(=O)N[C@@H](CC(C)C)C(=O)N[C@H](C(=O)N[C@@H](CCCNC(=N)N)C(=O)NCC(=O)N[C@@H](CCCNC(=N)N)C(=O)NCC(=O)O)C(C)C	QT interval corrected for heart rate, 12-lead Holter ECG	healthy human subjects	subcutaneous, 1.5 mg once weekly, 25 h post-dose, steady state	relative to: placebo, time-matched baseline	placebo-subtracted change in QTcI	-4.6 ms
COc1ncc(-c2nc3c(n2C(C)C)[C@H](c2ccc(Cl)cc2)N(c2cc(Cl)cn(C)c2=O)C3=O)c(OC)n1	LC-MS/MS	human, plasma	oral, 20 mg, cycle 1 day 14, low-dose arm		AUC(0-last)	1040 ng·h/mL
NC1(C(=O)N[C@@H](CCO)c2ccc(Cl)cc2)CCN(c2nc[nH]c3nccc2-3)CC1		metastatic CRPC patients	320 mg b.i.d., any grade, treatment-related, added: enzalutamide 160 mg daily		incidence of weight decreased	0%
CNC(=O)c1ccc(-c2cnc3ncc(Cc4ccc5ncccc5c4)n3n2)cc1F		Japanese patients	oral, 400 mg, any grade		Lipase increased dose reduction/interruption	2%
O=S(=O)(NC1(CC(F)(F)F)CC1)c1cccc(Cl)c1O	colloidal aggregate formation, dynamic light scattering	50 mM potassium phosphate buffer	200 µM, pH 7.0, 1% DMSO	higher = more aggregation	DLS scattered light intensity	621000 counts/s
C[C@@H]1CCO[C@H]2Cn3cc(C(=O)NCc4ccc(F)cc4F)c(=O)c(O)c3C(=O)N12	population PK, post-hoc	children, 25 to <30 kg, plasma	oral, 22.4 mg granules, steady state, geometric mean		AUC(0-24)	54400 ng·h/mL
O=C(Nc1cnccc1Cl)N1CCN(Cc2ccc3c(c2)OC(F)(F)O3)CC1	multiple ascending dose	young men	25 mg, treatment-emergent adverse events		alanine aminotransferase increased	0%
CNCc1ccc(-c2[nH]c3cc(F)cc4c3c2CCNC4=O)cc1		human patients	oral, 600 mg twice daily, grade 3		incidence of malignant neoplasm progression	0%

Structure (SMILES)	test	test system	conditions	scale	endpoint	result
O=C(Nc1nc2cccc(-c3ccc(CN4CCS(=O)(=O)CC4)cc3)n2n1)C1CC1	measured: immune system disorders	human rheumatoid arthritis patients	oral, 300 mg once daily, 4 weeks, regardless of relatedness		treatment-emergent adverse events	0%
CCOc1cccc(C(=O)Nc2ccc(-c3nc4ccccc4[nH]3)cc2)c1	haemolysis	sheep erythrocytes	1 h, pH 7.5		HC50	> 128 µg/mL
COc1cc(C(=O)NC2CCN(C)CC2)c(F)cc1Nc1ncc(C(F)(F)F)c(Oc2cccc3c2C(=O)N(C)C3)n1		human patients, plasma	oral, 200 mg single dose, cycle 1 day 1, geometric mean		Cmax, dose-normalised	9.14
CC(=O)N(C)[C@H]1CCN(C(=O)c2cnc3c(c2)C[C@](C)(c2ccc(F)cc2)N3)C1	measured: urinary frequency	human	oral, 15 mg once daily		adverse event duration	5 days
CNC(=O)c1ccc(-c2cnc3ncc(Cc4ccc5ncccc5c4)n3n2)cc1F	measured: Dyspnea, all grades	cancer patients	oral, dose not given, dose escalation, any causality		patients with adverse event	13%
CN(C(=O)n1cnc(-c2ccc[n+]([O-])c2)c1)[C@H]1CC[C@H](O)CC1		rat, hippocampus	oral, 10 mg/kg single dose, 1 h		tissue concentration	14 ± 0.2 ng/g
C[Si](C)(C)O[Si](C)(C)C		1-octanol/water	2-27 µg/L in water, 28.3 °C		log KOW	5.29
CC(Cc1ccc(NS(=O)(=O)c2cc(Cl)cc(Cl)c2O)cc1)C(=O)O (centres unmarked)	colloidal aggregate formation, dynamic light scattering	50 mM potassium phosphate buffer	200 µM, pH 7.0, 1% DMSO	higher = more aggregation	DLS scattered light intensity	660000 counts/s
CO[C@H]1CC[C@H](N2C(=O)CNc3ncc(-c4ccc(C(C)(C)O)nc4)nc32)CC1		patients, plasma	15 mg, day -1, geometric mean		CL/F	39.7 L/h
C[C@@H]1OC(=O)[C@H](Cc2ccccc2)[C@H]1O	soil adsorption	clay loam soil	pH 7.2, organic carbon 4.4 %		Freundlich coefficient KF	1.29 mL/g
CCCCCc1ccc(C(=O)Oc2ccc(C#N)c(F)c2)cc1	measured: compound	human pregnant women, female fetuses, maternal serum	dose not given, paired maternal-cord samples, mean		concentration	0.18 ng/mL
O=S(=O)(NCc1ccccc1OC(F)(F)F)c1cc(Cl)cc(Cl)c1O	colloidal aggregate formation, dynamic light scattering	50 mM potassium phosphate buffer	200 µM, pH 7.0, 1% DMSO	higher = more aggregation	DLS scattered light intensity	849000 counts/s
CCn1cc(C(=O)N2CCOCC2)c(=O)c2cc(NC3Cc4ccccc4C3)cnc21		human, fed	oral tablet, 300 mg single dose, arithmetic mean		AUC(0-inf)	14200 ng·h/mL
COc1cccc(OC)c1-c1cc(C(=O)NC2(C(=O)O)C3CC4CC(C3)CC2C4)nn1-c1ccc(C(=O)N(C)CCCN(C)CCCN(C)C(=O)CN2CCN(CC(=O)[O-])CCN(CC(=O)[O-])CCN(CC(=O)[O-])CC2)cc1C(C)C.[177Lu+3] (centres unmarked)		mouse, HT-29 xenograft	168 h post injection, biodistribution	relative to: tumour over brain uptake	tumour-to-brain ratio	21.9
CC[C@H](C)CCCCC(=O)N[C@@H](CCN)C(=O)N[C@H](C(=O)N[C@@H](CCN)C(=O)N[C@H]1CCNC(=O)[C@H]([C@@H](C)O)NC(=O)[C@H](CCN)NC(=O)[C@H](CCN)NC(=O)[C@H](CC(C)C)NC(=O)[C@@H](Cc2ccccc2)NC(=O)[C@H](CCN)NC1=O)[C@@H](C)O		mild renal impairment	intravenous infusion, 0.75 mg/kg single dose over 1 h, arithmetic mean		volume of distribution (Vz)	22.4 L
CCCCCCCOc1ccc(CCC(N)(CO)CO)cc1C(F)(F)F.Cl		healthy men, urine	oral, 0.75 mg once daily, day 21, fed state	relative to: dose	urinary excretion	0.151%
CCc1ccc(-c2ccc(-c3cc(F)c(F)c(F)c3)c(F)c2)cc1	measured: compound	human pregnant women, female fetuses, maternal serum	dose not given, paired maternal-cord samples, mean		concentration	0.73 ng/mL
Cc1cc(C)c(CNC(=O)c2cc(Cl)c3c(c2C)O[C@@](C)([C@H]2CC[C@H](N(C)C)CC2)O3)c(=O)[nH]1	radiochromatography	human, urine	oral, 200 mg	relative to: dose	urinary excretion	10.6% and 10% and 6.9% and 10.9%
COc1ccc(Br)c(CCNS(=O)(=O)c2ccsc2C(=O)O)c1	colloidal aggregate formation, dynamic light scattering	50 mM potassium phosphate buffer	200 µM, pH 7.0, 1% DMSO	higher = more aggregation	DLS scattered light intensity	458000 counts/s
NCCONC(=O)[C@@H]1CC[C@@H]2CN1C(=O)N2OS(=O)(=O)O		human, plasma	intravenous infusion, 1 g, days 7 to 9, multiple dosing, range of means		Ctrough	2850 to 2930 ng/mL
O=C1NCCc2nc(OCc3cccc(F)c3)ccc21	modified Irwin test	Sprague-Dawley rat, male	oral, 100 mg/kg, 1 h	higher = stronger effect	corneal reflex loss score	0
O=C(O)CCCOc1ccc([18F])cc1-c1cc(-c2ccccc2C(F)(F)F)n(-c2ccccc2)n1	gamma counting	male ddY mice, liver	intravenous, 2.1 MBq, 30 min		radioactivity uptake	0.92 ± 0.08 SUV
Cc1cc(-c2nccc3c2ccn3CC(=O)Nc2ccc(-c3cnccn3)cn2)ccn1		human	15 mg once daily, multiple ascending dose		subjects with limb injury	0%
FC(F)(F)c1ccc(CNc2ccc(Cc3c[nH]c4ncc(Cl)cc34)cn2)cn1	measured: Rash	patients with advanced solid tumours	oral, dose not given, grade 3 and 4, possibly related to drug		adverse event incidence	6%
CNC(=O)c1cc(Oc2ccc(NC(=O)Nc3cc(C(C)(C)C)nn3-c3ccc4ncccc4c3)c(F)c2)ccn1		human	oral, dose not given, cycles 1 and 2, Low AUC(0-4 h) subgroup		patients with any AE of special interest	40%
CO[C@H]1C[C@@H]2CC[C@@H](C)[C@@](O)(O2)C(=O)C(=O)N2CCCC[C@H]2C(=O)O[C@H]([C@H](C)C[C@@H]2CC[C@@H](O)[C@H](OC)C2)CC(=O)[C@H](C)/C=C(\C)[C@@H](O)[C@@H](OC)C(=O)[C@H](C)C[C@H](C)/C=C/C=C/C=C/1C		healthy adult horses	oral, 0.06 mg/kg, 10 h		rectal temperature	37.7 ± 0.5 °C
